Measured values of several laboratories.
Parts stem from different laboratories: compare values within a part only. Positions count from the first letter of the parent shown.

Study 1
Target: Ras GTPase-activating protein-binding protein 1, RRM domain (G3BP1, Homo sapiens, UniProt Q13283)
Chain of UniProt Q13283 (whole entry, looked up): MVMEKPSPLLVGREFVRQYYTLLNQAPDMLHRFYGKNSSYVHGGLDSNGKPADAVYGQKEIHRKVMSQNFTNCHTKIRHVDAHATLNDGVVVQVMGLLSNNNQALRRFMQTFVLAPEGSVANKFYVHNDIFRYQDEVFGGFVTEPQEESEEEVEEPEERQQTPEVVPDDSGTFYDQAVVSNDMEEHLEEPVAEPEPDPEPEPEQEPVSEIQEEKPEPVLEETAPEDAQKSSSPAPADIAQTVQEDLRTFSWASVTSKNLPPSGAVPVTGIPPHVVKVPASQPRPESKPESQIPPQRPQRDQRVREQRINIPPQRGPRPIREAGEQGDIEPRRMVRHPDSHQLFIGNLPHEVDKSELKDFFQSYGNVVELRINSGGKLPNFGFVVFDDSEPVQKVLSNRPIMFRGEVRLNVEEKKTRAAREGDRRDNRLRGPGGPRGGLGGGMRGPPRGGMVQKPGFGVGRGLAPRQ
Method: RNA Bind-n-Seq
Form: RNA
Sample: in vitro
Tested at: 1 µM
Notes: whole 134-nt RNA, ends assumed
Together with: 150 mM KCl
Baseline: input library
Reading: higher = stronger binding
Endpoint: log2 enrichment
Shared flanks, not repeated: GGGAGUUCUACAGUCCGACGAUC … UGGAAUUCUCGGGUGUCAAGG
GCAGGAAGUAAAAACAAAUGUAAAUGCUUCGGAUAGUGGCAGGGGUGGGGGUUGCUAAGGAAAGGGUGGGAUGGGAGUGGGUAAAGAGUU: 1.27
UGGCCCUGGUGGCAUGCGGGGAGGAAGAGGUGGCCUCAUGGAUCGUGGUGGUCCCGGCGGAAUGUUCAGAGGUGGCCGUGGUGGAGACAG: 0.925
UGGGCAUUUUGGUGGAGACGAUGAGCACCAACGACACGAUCGUCAGUGGCACGCUGCCCCAGCGCAUGGCGUCCUGCCUGGAGGUGCUGG: -0.587
UCCUGUGCUACACAUCGUAUGUACCGAAUCAAACCCCCCCAAAUUUUUAAACCCCCAAAAAAGUAUUAUGUUACGCCGUUCGGAUCUGCA: -0.194
AUUAAUUUGUACACAGACAGGGAAACUGGCAAGCUGAAGGGAGAGGCAACGGUCUCUUUUGAUGACCCACCUUCAGCUAAAGCAGCUAUU: -0.248
UCCUGUGCUACACAUCGUAUGUACCGAAUCGGAAAAAAGGGGAAAAAAGGAAAAAAGGGAAAGUAUUAUGUUACGCCGUUCGGAUCUGCA: 0.0653
UUUCUCCAUUGCAGGAAGUUGGCAGUAUCAUCGGAAAGGUAAGACAAUUUCACUUCAACUUCAAUUACCAUUUAGUAAUUCUGGAUUGAA: -0.221
UGGCCCUGGUGGCAUGCGGGGAGGAAGAGGUGGCCUCAUUGAUCGUGGUGGUCCCGGUGGAAUGUUCAGAGGUGGCCGUGGUGGAGACAG: 0.834
GUCCUGUGCUACACAUCGUAUGUACCGAAUCAAACCCCCCCAAACCCAAAUUUUUAAAAAAGUAUUAUGUUACGCCGUUCGGAUCUGCAC: -0.128
CACAGACAACACGCACCCACACAGACACAGAGGGAAGGGGUUGGGAUGGGGACAGGGUGCACAGCAGGGCUGGGUAGGACCCCAGCCCCU: -0.354
GUCCUGUGCUACACAUCGUAUGUACCGAAUCGGUUUUUUGGGUUUUUUGGUUUUUUGGGAAAGUAUUAUGUUACGCCGUUCGGAUCUGCA: -0.192

Study 2
Target: Interferon regulatory factor 5, full length, phosphomimetic (IRF5, Homo sapiens, UniProt Q13568-2, residues 1-514, K96S/S451D/S453D/S456D/S462D)
Method: protein-binding microarray
Form: double-stranded DNA, one strand shown
Sample: in vitro
Tested at: 250 nM
Notes: 60-bp whole probe
Together with: salmon DNA 0.4 mg/ml
Baseline: random background probes
Reading: higher = stronger binding
Endpoint: log fluorescence
Shared flanks, not repeated: GCCTAGCAC … GTCTTGATTCGCTTGACGCTGCTG
CTTTCACCTCTCGGCCTGATGTGCTAG: 2.63 z-score
TTAGGACTGGACTATCTGTTAGTGCTA: 0.695 z-score
GACGTACTGGGTATCGGGACGTGCTAG: 0.346 z-score
TTAGAACTGAGTATCGAATAGTGCTAG: 1.9 z-score
TTAGAACTGGGGACCGGATTAGTGCTA: -0.537 z-score
TTAAGTTTCGGTTCCGGTTAGTGCTAG: 10.9 z-score
TTAGGATTCCTTTCCCTTTAGTGCTAG: 0.944 z-score
TTAGATATCGGGGATCGATTAGTGCTA: 1.04 z-score
TCATTTACAGGTTCTCTTACTGTGCTA: 1.11 z-score

Study 3
Target: CCND2, cyclin fold, Cln2 fusion (human)
Method: yeast growth competition, sequencing
Sample: yeast
Notes: weak parent motif
Baseline: not given
Reading: higher = stronger binding
Endpoint: normalised enrichment score
Parent: SAMHD1 docking peptide (human); ASKSRVQLFKDDP; partner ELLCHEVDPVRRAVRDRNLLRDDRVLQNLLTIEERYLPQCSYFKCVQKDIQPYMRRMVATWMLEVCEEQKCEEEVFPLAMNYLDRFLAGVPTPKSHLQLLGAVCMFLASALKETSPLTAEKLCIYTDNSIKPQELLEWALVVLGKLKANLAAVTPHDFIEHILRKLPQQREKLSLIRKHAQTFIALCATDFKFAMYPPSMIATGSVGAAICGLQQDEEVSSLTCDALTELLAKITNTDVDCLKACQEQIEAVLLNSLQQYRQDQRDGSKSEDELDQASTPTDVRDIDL
L8Q: 0.142
R5Q: 0.203
F9A: 0.199
V6A: -0.00504
S2C: 0.0224
L8E: 0.2
K3H: 0.447
L8W: 0.257
L8A: -0.127
R5G: 0.104

Mixed results
PhoQ, residues 284 288 289 292 302 303 SLGVVW — fold induction (PhoP, residues 12 14 15 18 19 SYFRT (Escherichia coli, UniProt P23836); Sort-seq, measured: YFP reporter; E. coli; PhoQ-PhoP variant library, together with: 10 µM Mg2+; baseline: high Mg2+ state, higher = stronger signaling): 7.27

For quick reference, copied from above (study 1):
GUCCUGUGCUACACAUCGUAUGUACCGAAUCAAACCCCCCCAAACCCAAAUUUUUAAAAAAGUAUUAUGUUACGCCGUUCGGAUCUGCAC: -0.128
UCCUGUGCUACACAUCGUAUGUACCGAAUCAAACCCCCCCAAAUUUUUAAACCCCCAAAAAAGUAUUAUGUUACGCCGUUCGGAUCUGCA: -0.194
UCCUGUGCUACACAUCGUAUGUACCGAAUCGGAAAAAAGGGGAAAAAAGGAAAAAAGGGAAAGUAUUAUGUUACGCCGUUCGGAUCUGCA: 0.0653
